Results pooled from the literature.
Compare with care: the assays were run in different laboratories. ± marks the error that the study gave.

O=C([O-])CCCCCCCNC(=O)c1ccccc1O.[Na+]  Cmax (human, severe hepatic impairment, plasma; oral, once daily, day 10, after dose 10, geometric mean): 2360 ng/mL
COc1cc2nccc(Oc3ccc(NC(=O)NC4CC4)c(Cl)c3)c2cc1C(N)=O  Cmax (human, plasma; oral, 5 mg, arithmetic mean, together with: ketoconazole 400 mg/day): 54.6 ng/mL
CNc1nc(Nc2ccc(-n3cnc(C)n3)c(OC)c2)nc2c1CC[C@H]2c1ccc(F)cc1  Cmax (human; oral, 100 mg once daily, day 28, multiple ascending dose, geometric mean): 670 ng/mL
O=C(/C=C/c1cccc(S(=O)(=O)Nc2ccccc2)c1)NO[C@@H]1O[C@H](C(=O)O)[C@@H](O)[C@H](O)[C@H]1O  Cmax (human severe liver dysfunction, plasma; intravenous, 400 mg/m^2, 30 min infusion, cycle 1 day -7, together with: belinostat 400 mg/m^2 iv): 72800 ng/mL
CC#CC(=O)NCCCC(=O)c1nc(-c2ccc(C(=O)Nc3ccccn3)cc2)c2c(N)nccn12  Cmax (human, severe hepatic impairment, plasma; oral, 50 mg acalabrutinib, single, total, geometric mean): 169 ng/mL
O=C(NC[C@H](O)CO)c1ccncc1Nc1ccc(I)cc1F  Cmax (human; oral, 45 mg, single dose with FOLFIRI): 145 ng/mL
C=CC(=O)Nc1cc(Nc2ncc(C(=O)OC(C)C)c(-c3cn(C)c4ccccc34)n2)c(OC)cc1N(C)CCN(C)C  Cmax (human, fasted; oral, 120 mg single dose, geometric mean): 25.8 ng/mL
Cc1ccc(C(=O)NC2CC2)cc1-n1ncc(C(=O)c2cccc(C#N)c2)c1N  Cmax (healthy human; oral, dose not given, geometric mean, together with: itraconazole 200 mg daily days 1-14): 110 ng/mL
CN(C)[C@@H](CCOc1cccc2ccccc12)c1ccccc1  Cmax (healthy male humans, plasma; oral, 60 mg, together with: udenafil 200 mg): 368 ± 122 ng/mL
CC(O)C(C)n1ncn(-c2ccc(N3CCN(c4ccc(OCC5COC(Cn6cncn6)(c6ccc(Cl)cc6Cl)O5)cc4)CC3)cc2)c1=O (stereo not shown)  Cmax (human male, plasma; oral, dose not given, day 3, geometric mean, together with: itraconazole 200 mg pretreatment): 730 ng/mL
O=C(O)CNC(=O)c1c(O)c2ccccc2n(OCC2CC2)c1=O  Cmax (LC-MS/MS; human, blood; oral, 100 mg multiple doses): 1020 ± 414 ng/mL
NC(=O)N1CCC(CC(=O)N2CCC([C@H]3c4ncc(Br)cc4CCc4cc(Cl)cc(Br)c43)CC2)CC1  Cmax (human, plasma; oral, 150 mg twice daily, cycle 2 day 15, together with: gemcitabine 750 mg/m2): 1500 ng/mL
Nc1cccc2c1C(=O)N(C1CCC(=O)NC1=O)C2=O (stereo not shown)  Cmax (healthy male humans, plasma; oral, dose not given, geometric mean, together with: fluvoxamine): 60.8 ng/mL
C=CCNC1=C2C[C@@H](C)C[C@H](OC)[C@H](O)[C@@H](C)/C=C(\C)[C@H](OC(N)=O)[C@@H](OC)/C=C\C=C(/C)C(=O)NC(=CC1=O)C2=O  Cmax (human, plasma; intravenous infusion, 400 mg/m^2, day 1, 3 h infusion): 10.3 µM
CC(C)n1nc(-c2ccc3oc(N)nc3c2)c2c(N)ncnc21  Cmax (human, plasma; oral, 30 mg once weekly, cycle 1 day 15): 379 ng/mL
O=C(Cc1cccc(OC(F)(F)F)c1)Nc1ccc(CCCCc2nnc(NC(=O)Cc3ccccn3)s2)nn1  Cmax (human patients, plasma; oral, 400 mg three times daily fasted, cycle 1 day 15 steady state): 818 ng/mL
CC(C)(C)OC[C@@H]1C(=O)NCCN1C(=O)C[C@H](N)Cc1cc(F)c(F)cc1F  Cmax (human, male, plasma; oral, single dose, fixed-dose combination with metformin, fasted): 6.79 ± 1.4 ng/mL
CCOCCn1c(C2CCN(CCc3ccc(C(C)(C)C(=O)O)cc3)CC2)nc2ccccc21  Cmax (healthy human subjects, plasma; oral, 20 mg, geometric LS mean): 135 ng/mL
COc1ccc2nc([S@@+]([O-])Cc3ncc(C)c(OC)c3C)[nH]c2c1  Cmax (human, CYP2C19 normal metabolizers, plasma; oral, 40 mg/day, day 1): 6230 ± 2840 ng/mL

Some of these lines once more:
O=C([O-])CCCCCCCNC(=O)c1ccccc1O.[Na+]  Cmax (human, severe hepatic impairment, plasma; oral, once daily, day 10, after dose 10, geometric mean): 2360 ng/mL
COc1cc2nccc(Oc3ccc(NC(=O)NC4CC4)c(Cl)c3)c2cc1C(N)=O  Cmax (human, plasma; oral, 5 mg, arithmetic mean, together with: ketoconazole 400 mg/day): 54.6 ng/mL
